Measurements pooled from the literature.
Numbered parts are unrelated; each lists some results of a single study. Positions count from the first letter of the parent shown.
UniProt Q9UQM7, sequence (whole entry, looked up): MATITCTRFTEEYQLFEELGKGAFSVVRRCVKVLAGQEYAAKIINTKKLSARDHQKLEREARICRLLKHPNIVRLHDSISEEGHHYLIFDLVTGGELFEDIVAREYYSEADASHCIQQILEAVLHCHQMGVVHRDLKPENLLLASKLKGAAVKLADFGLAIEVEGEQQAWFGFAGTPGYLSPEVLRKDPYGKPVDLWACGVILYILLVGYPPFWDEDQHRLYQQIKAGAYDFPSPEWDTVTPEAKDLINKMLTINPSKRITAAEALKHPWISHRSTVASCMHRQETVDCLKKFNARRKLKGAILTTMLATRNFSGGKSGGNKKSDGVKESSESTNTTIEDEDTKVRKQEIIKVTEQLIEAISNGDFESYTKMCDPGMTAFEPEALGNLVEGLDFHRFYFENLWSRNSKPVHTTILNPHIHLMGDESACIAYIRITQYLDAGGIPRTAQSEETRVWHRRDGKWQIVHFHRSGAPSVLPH

Study 1 — target: CCND3, cyclin fold, Cln2 fusion (human); method: yeast growth competition, sequencing; sample: yeast; setting: weak parent motif; relative to: not given; direction: higher = stronger binding; starting sequence: viral docking peptide; TSVRRALFTGGSD
Variant | normalised enrichment score
G11Y | -0.35
L7E | 0.133
R4P | 0.0318
G10K | -0.0115
G10S | 0.205
F8A | 0.109
L7D | -0.0497
V3G | 0.168

Study 2 — effect on: Ni-NTA bead binding; method: phage display NGS; form: peptide; sample: phage-displayed 11-mer library; tested at: concentration not given; with: Ni-NTA beads; relative to: input library
Molecule | enrichment fold change
TAPFYPPAYAI | 1.91
TAPFYPPAYQI | 1.02
TAPFYPPAYFI | 2

Study 3 — target: tungstate, free oxyanion; method: microfluidic competitive inhibition; sample: in vitro, cell-free expressed; tested at: not given; direction: lower = stronger binding
Setting: derived from inhibition constants, unchanged parent 2230 nM
Starting sequence: PafA, mature enzyme, eGFP fusion (Elizabethkingia meningoseptica, UniProt Q9KJX5); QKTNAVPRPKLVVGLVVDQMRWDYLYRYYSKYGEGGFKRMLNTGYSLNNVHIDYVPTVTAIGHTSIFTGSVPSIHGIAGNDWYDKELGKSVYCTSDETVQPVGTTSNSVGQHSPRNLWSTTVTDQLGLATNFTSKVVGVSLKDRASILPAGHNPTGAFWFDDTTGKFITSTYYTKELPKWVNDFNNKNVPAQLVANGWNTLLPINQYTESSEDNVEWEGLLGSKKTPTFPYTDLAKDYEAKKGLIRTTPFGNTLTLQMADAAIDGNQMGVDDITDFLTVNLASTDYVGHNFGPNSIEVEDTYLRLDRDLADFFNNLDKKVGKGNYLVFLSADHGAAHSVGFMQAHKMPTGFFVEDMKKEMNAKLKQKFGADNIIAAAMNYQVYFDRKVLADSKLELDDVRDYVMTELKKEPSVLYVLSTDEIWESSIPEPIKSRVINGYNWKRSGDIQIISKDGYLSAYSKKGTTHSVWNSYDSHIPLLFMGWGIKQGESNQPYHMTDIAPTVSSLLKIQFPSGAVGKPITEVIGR
Variant | oxyanion analog dissociation constant
D401V | 2.2 µM
E86V | 2.01 µM
V109G | 2.02 µM
W198V | 1.17 µM
N372V | 3 µM
L47V | 2.26 µM
N153G | 1.84 µM
I450G | 1.1 µM

Mixed results — mode: inhibitor; tested at: 10 µM
Compound | target or system | test | system | conditions | how to read | measurement | result
O=C1CCC[C@@H]2[C@H]3CCCN4CCC[C@H](CN12)[C@@H]34 | CAMK2A (Homo sapiens, UniProt Q9UQM7) | enzyme activity | – | – | – | inhibition | -11%
CCOC(=O)c1cncn1[C@H](C)c1ccccc1 | Plasmodium berghei | – | Huh-7, liver stage | 24 h | relative to: untreated control | infection rate | 108%

Excerpt of the above (study 3):
Variant | oxyanion analog dissociation constant
L47V | 2.26 µM
V109G | 2.02 µM
